Published values from different studies.
± marks the error that the study gave.

SMILES | system | conditions | how to read | endpoint | value
Cc1cc(-c2ccc(NC(=O)[C@H](CCCCNC(=O)CCN3C(=O)CC(SCCC(=O)N[C@H](Cc4ccccc4)C(=O)N[C@H]4CSSC[C@@H](C(=O)N[C@H](C(=O)O)[C@@H](C)O)NC(=O)[C@H]([C@@H](C)O)NC(=O)[C@H](CCCCN)NC(=O)[C@@H](Cc5c[nH]c6ccccc56)NC(=O)[C@H](Cc5ccc(O)cc5)NC4=O)C3=O)NC(=O)CN3CCN(CC(=O)O)CCN(CC(=O)O)CCN(CC(=O)O)CC3)c(C)c2)ccc1N=Nc1ccc2c(S(=O)(=O)O)cc(S(=O)(=O)O)c(N)c2c1O (stereo partly drawn) [lutetium-177 labelled] | patients with metastatic NETs, all metastatic lesions |  |  | residence time | 0.4 ± 0.19 h
N=C(N)NCCC[C@@H]1NC(=O)[C@H](CCCCNC(=O)CNC(=O)CNC(=O)CNC(=O)CC[C@H](NC(=O)CNC(=O)CNC(=O)CNC(=O)CC[C@H](NC(=O)CN2CCN(CC(=O)O)CCN(CC(=O)O)CCN(CC(=O)O)CC2)C(=O)NCC(=O)NCC(=O)NCC(=O)N[C@@H](CCC(=O)NCC(=O)NCC(=O)NCC(=O)NCCCC[C@@H]2NC(=O)[C@@H](Cc3ccccc3)NC(=O)[C@H](CC(=O)O)NC(=O)CNC(=O)[C@H](CCCNC(=N)N)NC2=O)C(=O)NCC(=O)NCC(=O)NCC(=O)NCCCC[C@@H]2NC(=O)[C@@H](Cc3ccccc3)NC(=O)[C@H](CC(=O)O)NC(=O)CNC(=O)[C@H](CCCNC(=N)N)NC2=O)C(=O)NCC(=O)NCC(=O)NCC(=O)NCCCC[C@@H]2NC(=O)[C@@H](Cc3ccccc3)NC(=O)[C@H](CC(=O)O)NC(=O)CNC(=O)[C@H](CCCNC(=N)N)NC2=O)NC(=O)[C@@H](Cc2ccccc2)NC(=O)[C@H](CC(=O)O)NC(=O)CNC1=O [indium-111 labelled] | female athymic nu/nu mice, brain | intravenous, 0.5 h |  | tissue uptake | 0.13 ± 0.08 %ID/g
CC1(C)C(/C=C/C=C/C=C2/N(CCCCCC(=O)NCCCC[C@@H]3NC(=O)[C@@H](Cc4ccc(O)cc4)NC(=O)[C@H](CC(=O)O)NC(=O)CNC(=O)[C@H](CCCNC(=N)N)NC3=O)c3ccccc3C2(C)C)=[N+](CCCCn2nnc3c2-c2ccccc2CN(C(=O)CCC(=O)NCCNC(=O)CN(CCN(CC(=O)O)CC(=O)O)CCN(CC(=O)O)CC(=O)O)c2ccccc2-3)c2ccc(S(=O)(=O)[O-])cc21 | PBS |  |  | fluorescence quantum yield | 12%
CN1C(=O)[C@@H](Cc2ccc(O)cc2)NC(=O)CNC(=O)[C@H](Cc2ccc3ccccc3c2)NC(=O)[C@H](CCCNC(=N)N)NC(=O)[C@H]1CCCNC(=O)c1ccc(CNC(=O)CN2CCN(CC(=O)O)CCN(CC(=O)O)CCN(CC(=O)O)CC2)cc1 [gallium-68 labelled] | adult reference man, from C57BL/6 mice data, heart contents | dose not given |  | time-integrated activity coefficient | 0.042 ± 0.012 MBq-h/MBq
N=C(N)NCCC[C@@H]1NC(=O)[C@H](CCCCNC(=O)CNC(=O)CNC(=O)CNC(=O)CC[C@H](NC(=O)CNC(=O)CNC(=O)CNC(=O)CN2CCN(CC(=O)O)CCN(CC(=O)O)CCN(CC(=O)O)CC2)C(=O)NCC(=O)NCC(=O)NCC(=O)NCCCC[C@@H]2NC(=O)[C@@H](Cc3ccccc3)NC(=O)[C@H](CC(=O)O)NC(=O)CNC(=O)[C@H](CCCNC(=N)N)NC2=O)NC(=O)[C@@H](Cc2ccccc2)NC(=O)[C@H](CC(=O)O)NC(=O)CNC1=O [indium-111 labelled] | female athymic nu/nu mice, intestine | intravenous, 72 h |  | tissue uptake | 1.89 ± 0.19 %ID/g
Cc1cc(-c2ccc(NC(=O)[C@H](CCCCNC(=O)CCOCCOCCC(=O)N[C@H](Cc3ccccc3)C(=O)N[C@H]3CSSC[C@@H](C(=O)N[C@H](C(=O)O)[C@@H](C)O)NC(=O)[C@H]([C@@H](C)O)NC(=O)[C@H](CCCCN)NC(=O)[C@@H](Cc4c[nH]c5ccccc45)NC(=O)[C@H](Cc4ccc(O)cc4)NC3=O)NC(=O)CN3CCN(CC(=O)O)CCN(CC(=O)O)CCN(CC(=O)O)CC3)c(C)c2)ccc1N=Nc1ccc2c(S(=O)(=O)O)cc(S(=O)(=O)O)c(N)c2c1O [lutetium-177 labelled] | patients with metastatic NETs, lymph node metastases | intravenous |  | effective half-life | 153 ± 50 h
N=C(N)NCCC[C@@H]1NC(=O)[C@H](CCCCNC(=O)CC[C@H](NC(=O)CC[C@H](NC(=O)CN2CCN(CC(=O)O)CCN(CC(=O)O)CCN(CC(=O)O)CC2)C(=O)N[C@@H](CCC(=O)NCCCC[C@@H]2NC(=O)[C@@H](Cc3ccccc3)NC(=O)[C@H](CC(=O)O)NC(=O)CNC(=O)[C@H](CCCNC(=N)N)NC2=O)C(=O)NCCCC[C@@H]2NC(=O)[C@@H](Cc3ccccc3)NC(=O)[C@H](CC(=O)O)NC(=O)CNC(=O)[C@H](CCCNC(=N)N)NC2=O)C(=O)NCCCC[C@@H]2NC(=O)[C@@H](Cc3ccccc3)NC(=O)[C@H](CC(=O)O)NC(=O)CNC(=O)[C@H](CCCNC(=N)N)NC2=O)NC(=O)[C@@H](Cc2ccccc2)NC(=O)[C@H](CC(=O)O)NC(=O)CNC1=O [indium-111 labelled] | female athymic nu/nu mice, intestine | intravenous, 1 h |  | tissue uptake | 8.42 ± 1.65 %ID/g
CCCC[C@H](NC(=O)CCCCCCCNC(=O)CN1CCN(CC(=O)O)CCN(CC(=O)O)CC1)C(=O)N[C@H]1CC(=O)NCCCC[C@@H](C(N)=O)NC(=O)[C@H](Cc2c[nH]c3ccccc23)NC(=O)[C@H](CCCNC(=N)N)NC(=O)[C@@H](Cc2ccccc2)NC(=O)[C@H](Cc2c[nH]cn2)NC1=O [copper-64 labelled] | C57 mice, stomach | intravenous, 0.37 MBq, 24 h |  | tissue uptake | 0.1 ± 0.05 %ID/g
C=C1CC[C@H](OCCCNC(=O)CCOCCOCCOCCOCCOCCOCCOCCOCCOCCOCCOCCOCCOCCOCCOCCOCCOCCOCCOCCOCCOCCOCCOCCOCCOCCOCCOCCOCCOCCOCCOCCOCCOCCOCCOCCOCCNC(=O)CCN2C(=O)CC(SC[C@H](NC(=O)[C@H](Cc3ccccc3)NC(=O)[C@H](CC(N)=O)NC(=O)[C@H](Cc3c[nH]cn3)NC(=O)[C@@H](NC(=O)[C@H](CC(=O)O)NC(=O)[C@H](CCC(N)=O)NC(=O)[C@H](CC(C)C)NC(=O)[C@H](CCCCN)NC(=O)[C@H](CCCCN)NC(=O)[C@H](CCCNC(=N)N)NC(=O)[C@H](CC(C)C)NC(=O)[C@H](Cc3c[nH]c4ccccc34)NC(=O)[C@H](CCC(=O)O)NC(=O)[C@@H](NC(=O)[C@H](CCCNC(=N)N)NC(=O)[C@H](CCC(=O)O)NC(=O)[C@H](CCSC)NC(=O)[C@H](CO)NC(=O)[C@H](CC(N)=O)NC(=O)[C@H](CC(C)C)NC(=O)[C@H](Cc3c[nH]cn3)NC(=O)[C@H](CCCCN)NC(=O)CNC(=O)[C@H](CC(C)C)NC(=O)[C@H](CC(N)=O)NC(=O)[C@H](Cc3c[nH]cn3)NC(=O)[C@H](CCSC)NC(=O)[C@H](CC(C)C)NC(=O)[C@H](CCC(N)=O)NC(=O)[C@@H](NC(=O)[C@H](CCC(=O)O)NC(=O)[C@H](CO)NC(=O)[C@@H](NC(=O)[C@@H](N)CO)C(C)C)[C@@H](C)CC)C(C)C)C(C)C)C(N)=O)C2=O)C/C1=C/C=C1\CCC[C@]2(C)[C@@H]([C@H](C)CCCC(C)(C)O)CC[C@@H]12 (stereo partly drawn) | Sprague Dawley rat | subcutaneous, daily, except 70 µg/kg | relative to: day 1 | accumulation ratio | ~3 fold
CCCCCCCCCCCCCCCC(=O)NCCCC[C@H](NC(=O)[C@H](CSCC(=O)NCc1cn(CCOc2ccc(C3=C4C(C)=C(I)C(C)=[N+]4[B-](F)(F)n4c(C)c(I)c(C)c43)cc2)nn1)NC(=O)c1ccc(-c2nnc(C)nn2)cc1)C(=O)N[C@@H](CCCNC(=N)N)C(=O)N[C@@H](CCCNC(=N)N)C(=O)N[C@@H](CCCNC(=N)N)C(=O)N[C@@H](CCCNC(=N)N)C(N)=O |  | 1 µM, with: DPBF, 525 nm light | relative to: rose bengal, erythrosine B | singlet oxygen quantum yield | 0.55
CCCC[C@H](NC(=O)COCCOCCNC(=O)CN1CCN(CC(=O)O)CCN(CC(=O)O)CC1)C(=O)N[C@H]1CC(=O)NCCCC[C@@H](C(N)=O)NC(=O)[C@H](Cc2c[nH]c3ccccc23)NC(=O)[C@H](CCCNC(=N)N)NC(=O)[C@@H](Cc2ccccc2)NC(=O)[C@H](Cc2c[nH]cn2)NC1=O [copper-64 labelled] | C57 mice, muscle | intravenous, 0.37 MBq, 0.5 h |  | tissue uptake | 1.28 ± 0.39 %ID/g
CCCC[C@H](NC(=O)CNC(=O)CNC(=O)CN1CCN(CC(=O)O)CCN(CC(=O)O)CCN(CC(=O)O)CC1)C(=O)N[C@H]1CC(=O)NCCCC[C@@H](C(N)=O)NC(=O)[C@H](Cc2c[nH]c3ccccc23)NC(=O)[C@H](CCCNC(=N)N)NC(=O)[C@@H](Cc2ccccc2)NC(=O)[C@H](Cc2c[nH]cn2)NC1=O [lutetium-177 labelled] | C57 mouse, female, tumour | intravenous, 0.037 MBq, 0.5 h |  | tissue uptake | 20.2 ± 4.59 %ID/g

Excerpt of the above:
SMILES | system | conditions | how to read | endpoint | value
Cc1cc(-c2ccc(NC(=O)[C@H](CCCCNC(=O)CCN3C(=O)CC(SCCC(=O)N[C@H](Cc4ccccc4)C(=O)N[C@H]4CSSC[C@@H](C(=O)N[C@H](C(=O)O)[C@@H](C)O)NC(=O)[C@H]([C@@H](C)O)NC(=O)[C@H](CCCCN)NC(=O)[C@@H](Cc5c[nH]c6ccccc56)NC(=O)[C@H](Cc5ccc(O)cc5)NC4=O)C3=O)NC(=O)CN3CCN(CC(=O)O)CCN(CC(=O)O)CCN(CC(=O)O)CC3)c(C)c2)ccc1N=Nc1ccc2c(S(=O)(=O)O)cc(S(=O)(=O)O)c(N)c2c1O (stereo partly drawn) [lutetium-177 labelled] | patients with metastatic NETs, all metastatic lesions |  |  | residence time | 0.4 ± 0.19 h
CN1C(=O)[C@@H](Cc2ccc(O)cc2)NC(=O)CNC(=O)[C@H](Cc2ccc3ccccc3c2)NC(=O)[C@H](CCCNC(=N)N)NC(=O)[C@H]1CCCNC(=O)c1ccc(CNC(=O)CN2CCN(CC(=O)O)CCN(CC(=O)O)CCN(CC(=O)O)CC2)cc1 [gallium-68 labelled] | adult reference man, from C57BL/6 mice data, heart contents | dose not given |  | time-integrated activity coefficient | 0.042 ± 0.012 MBq-h/MBq
